Results from different studies.
Parts stem from different laboratories: compare values within a part only. Substitutions count along the parent as printed.

Block 1
Target: CREB3L1, bZIP domain (human)
Method: DHFR protein complementation
Medium: yeast
Setting: single substitutions, most at no-binding floor
Baseline: wild-type JUN-FOS pair
Direction: higher = stronger binding
Starting sequence: JUN, bZIP domain (human); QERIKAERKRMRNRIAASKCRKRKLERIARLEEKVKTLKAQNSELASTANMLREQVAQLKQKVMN; partner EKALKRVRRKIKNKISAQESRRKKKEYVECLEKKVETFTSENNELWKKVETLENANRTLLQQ
| Variant | binding fitness |
| --- | --- |
| E32T | -1.28 natural log |
| N42H | -1.51 natural log |
| V35D | -1.53 natural log |
| V35P | -1.47 natural log |
| L45I | -1.38 natural log |
| E44W | -1.48 natural log |
| S47A | -1.29 natural log |
| L52A | -1.56 natural log |
| V35R | -1.38 natural log |
| A57P | -1.47 natural log |
| R53N | -1.49 natural log |
| A29S | -1.46 natural log |
| A57T | -1.32 natural log |
| L31Y | -1.48 natural log |
| A29C | -1.5 natural log |
| S47H | -1.15 natural log |
| A49F | -1.51 natural log |
| E33H | -1.49 natural log |

Block 2
Target: ABI1, truncated, D143A, DHFR fusion (Arabidopsis thaliana)
Method: DHFR PCA, deep sequencing
Medium: yeast
Setting: methotrexate growth selection, single substitutions
Together with: (+)-ABA 58 µM
Baseline: wild-type fitted maximum
Direction: higher = stronger binding
Starting sequence: PYL1, truncated, DHFR fusion (Arabidopsis thaliana); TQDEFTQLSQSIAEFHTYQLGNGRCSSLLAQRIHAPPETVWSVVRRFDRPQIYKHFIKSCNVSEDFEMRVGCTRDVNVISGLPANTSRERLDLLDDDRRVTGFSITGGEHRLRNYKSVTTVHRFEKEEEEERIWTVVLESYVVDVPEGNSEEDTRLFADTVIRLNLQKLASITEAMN
| Variant | relative binding score [%] |
| --- | --- |
| S63H | 82.7 |
| S87L | 0.196 |
| D159E | 76.6 |
| V142K | 55.8 |
| G23W | 53.8 |
| E129P | 98 |
| F66K | 76 |
| G108S | 10.1 |
| L112D | -6.11 |
| T86P | -4.51 |
| R45P | -11.3 |
| A13E | 89.9 |
| R24C | 74.4 |
| G108Y | -22.1 |
| R111V | 9.38 |
| K168E | 56.2 |
| P146Y | 10.8 |

Block 3
Target: Ras GTPase-activating protein-binding protein 1, C-terminal RGG region (G3BP1, Homo sapiens, UniProt Q13283)
Sequence of UniProt Q13283 (whole entry, looked up): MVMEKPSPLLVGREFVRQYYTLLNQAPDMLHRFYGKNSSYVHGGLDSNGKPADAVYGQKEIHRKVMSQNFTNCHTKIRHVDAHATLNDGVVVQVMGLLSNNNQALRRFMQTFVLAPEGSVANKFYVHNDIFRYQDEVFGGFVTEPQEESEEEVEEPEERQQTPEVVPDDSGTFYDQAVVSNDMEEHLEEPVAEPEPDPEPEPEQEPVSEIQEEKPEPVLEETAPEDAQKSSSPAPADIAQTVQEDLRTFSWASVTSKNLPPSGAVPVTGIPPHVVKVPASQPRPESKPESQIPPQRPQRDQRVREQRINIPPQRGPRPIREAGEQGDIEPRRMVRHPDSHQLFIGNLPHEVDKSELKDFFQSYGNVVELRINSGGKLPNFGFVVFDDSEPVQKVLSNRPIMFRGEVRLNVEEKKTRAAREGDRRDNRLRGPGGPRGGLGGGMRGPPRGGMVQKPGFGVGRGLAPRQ
Method: RNA Bind-n-Seq
Form: RNA
Medium: in vitro
Tested at: 1 µM
Setting: whole 134-nt RNA, ends assumed
Together with: 150 mM KCl
Baseline: input library
Direction: higher = stronger binding
| Strand | log2 enrichment |
| --- | --- |
| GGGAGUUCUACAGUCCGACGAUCUCCUCAAGUCCUGUGCUACACAUCGUAUGUACCGAAUCGGGAGGGAGGAGGGAAAGUAUUAUGUUACGCCGUUCGGAUCUGCACUUCCAGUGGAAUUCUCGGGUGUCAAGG | 0.579 |
| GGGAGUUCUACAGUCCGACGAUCUGCUUGUGUUUCUGACAGAUUCACUGCCUUCUGAGGACUUGGAUCCUGCCGAUCCCCCGAUCUCGGUAACUGUUGGCCUGAUCUGGCUGUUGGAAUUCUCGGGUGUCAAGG | 0.296 |
| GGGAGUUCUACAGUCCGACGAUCUAACUUUAGAGGAGGAUCUGAUGGAUAUGGCAGUGGACGUGGAGUUGGGGAUGGCUAUAAUGGGUAUGGAGGAGGACCUGGAGGUGGCAAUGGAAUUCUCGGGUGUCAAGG | -0.816 |
| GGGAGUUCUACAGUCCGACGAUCGUCCUGUGCUACACAUCGUAUGUACCGAAUCGGGGAAAGGGGUUUGGGGAAAAAGGGGAAAGUAUUAUGUUACGCCGUUCGGAUCUGCACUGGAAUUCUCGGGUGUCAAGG | 2.82 |
| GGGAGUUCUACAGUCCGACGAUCUGGCCCUGGUGGCAUGCGGGGAGGAAGAGGUGGCCUCAUGGAUCGUGGUGGUCCCGGUGGAAUGUUCAGAGGUGGCCGUGGUGCAGACAGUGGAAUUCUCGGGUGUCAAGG | 1.82 |
| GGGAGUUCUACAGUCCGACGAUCGUCCUGUGCUACACAUCGUAUGUACCGAAUCGGGCCCCCGGGGCCCCCGGCCCCCGGGGAAAGUAUUAUGUUACGCCGUUCGGAUCUGCAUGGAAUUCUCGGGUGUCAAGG | -2.05 |
| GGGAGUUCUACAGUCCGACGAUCGUCCUGUGCUACACAUCGUAUGUACCGAAUCAAACCCAAAUUUUUUUAAACCCCCAAAAAAGUAUUAUGUUACGCCGUUCGGAUCUGCACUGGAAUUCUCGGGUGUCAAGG | -0.859 |
| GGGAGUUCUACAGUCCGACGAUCUCAAGUCCUGUGCUACACAUCGUAUGUACCGAAUCGGCCCGGCCCGGGCCCGGGGAAAGUAUUAUGUUACGCCGUUCGGAUCUGCACUUCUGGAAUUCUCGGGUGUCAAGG | -1.72 |
| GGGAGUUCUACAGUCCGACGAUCUCCUGUGCUACACAUCGUAUGUACCGAAUCAAAUUUUUAAAUUUUUAAAUUUUUUUAAAAAAGUAUUAUGUUACGCCGUUCGGAUCUGCAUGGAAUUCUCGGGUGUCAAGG | -1.17 |
| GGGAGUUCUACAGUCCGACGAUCUCAAGUCCUGUGCUACACAUCGUAUGUACCGAAUCGGAAAAAAAGGAAAGGUGGAAAGUAUUAUGUUACGCCGUUCGGAUCUGCACUUCCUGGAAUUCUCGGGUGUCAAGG | -1.94 |

Block 4
Target: CCNB2, cyclin fold, Cln2 fusion (human)
Method: yeast growth competition, sequencing
Medium: yeast
Setting: weak parent motif
Baseline: not given
Direction: higher = stronger binding
Starting sequence: INSM1 docking peptide (human); PKAIRKLHFEDEV
| Variant | normalised enrichment score |
| --- | --- |
| E10M | 0.334 |
| K6N | 0.163 |
| I4G | -0.042 |
| E12Y | -0.0525 |
| K2E | 0.167 |
| H8C | 0.27 |
| H8W | 0.00977 |
| F9Y | 0.295 |
| R5E | -0.0492 |
| D11Y | 0.322 |
| I4C | 0.707 |
| I4W | 0.301 |
| A3M | 0.61 |
| K6R | 0.204 |
| F9E | 0.127 |
| A3V | 1.68 |
| K6E | 3.09e-05 |
| E12K | 0.528 |

Single results of other studies
| Molecule | target | assay | system | setting | scale | measurement | result |
| --- | --- | --- | --- | --- | --- | --- | --- |
| PhoQ, residues 284 288 289 292 302 303 AMDMFI | PhoP, residues 12 14 15 18 19 NMSSL (Escherichia coli, UniProt P23836) | Sort-seq, refers to: YFP reporter | E. coli | PhoQ-PhoP variant library, together with: 10 µM Mg2+ | baseline: high Mg2+ state, higher = stronger signaling | fold induction | 2.68 |

Excerpt of the above (block 2):
| Variant | relative binding score [%] |
| --- | --- |
| R111V | 9.38 |
| P146Y | 10.8 |
| V142K | 55.8 |
| S63H | 82.7 |
| D159E | 76.6 |
| G108Y | -22.1 |
| T86P | -4.51 |
| K168E | 56.2 |
| R24C | 74.4 |
| G23W | 53.8 |
